Experimental data gathered from unrelated publications.
Protocols differ between the studies behind these lines. Numbers after ± are the reported error. In brackets after ≈: the same amount, converted by molar mass.

With `Cc1ccc2c(n1)c(-c1cccc(S(C)(=O)=O)c1)c(C)n2C/C(F)=C/CN` the inhibition was -5% (strychnine-sensitive glycine receptor (rat); radioligand binding; 10 µM, rat).
`CC[C@H](C)[C@H](NC(=O)[C@H](Cc1ccccc1)NC(=O)[C@@H](NC(=O)[C@@H](NC(=O)[C@H](CC(C)C)NC(=O)[C@H](CCCCN)NC(=O)[C@@H](N)CCCCN)[C@@H](C)CC)[C@@H](C)O)C(=O)N[C@@H](CC(C)C)C(=O)N[C@@H](CCCNC(=N)N)C(=O)N[C@@H](CCCNC(=N)N)C(=O)N[C@H](C(=O)N[C@@H](CCCNC(=N)N)C(=O)N[C@@H](CCC(=O)O)C(=O)N[C@@H](CCCCN)C(=O)N[C@@H](CCCCN)C(=O)N[C@@H](CCCCN)C(=O)N[C@@H](CCC(=O)O)C(=O)N[C@@H](CS)C(=O)N[C@@H](CC(C)C)C(=O)N[C@H](C(=O)O)C(C)C)[C@@H](C)O`: “decay time constant” 27.5 ± 0.9 ms (TTX-sensitive sodium channel (mouse); resurgent sodium current, open-channel blocker, whole-cell patch clamp; mouse hippocampal CA3 neurons; 200 µM intracellular, 22 °C, step to +30 mV, 10 ms, with: repolarisation to -30 mV).
`CC(C)C[C@H](NC(=O)[C@H](Cc1ccc(OP(=O)(O)O)cc1)NC(=O)[C@H](CCC(=O)O)NC(=O)[C@H](CC(=O)O)NC(=O)[C@H](C)NC(=O)[C@H](CC(=O)O)NC(=O)[C@@H](NC(=O)CCCCCNC(=O)CCCC[C@@H]1SC[C@@H]2NC(=O)N[C@@H]21)C(C)C)C(N)=O` gave a dephosphorylation of 96% (YopH; Yersinia pestis).
The EC50 of `CC(C)N1CCn2cc(C(=O)NCc3ccc(F)cc3F)c(=O)c(O)c2C1=O` is reported as 243 ± 55.6 nM (HIV-1; viral replication, single-round vector infection; IN G140A/Q148K).
With `CC[C@H](C)[C@H](NC(=O)[C@H](CCCCN)NC(=O)[C@H](CCCCN)NC(=O)[C@H](CC(C)C)NC(=O)[C@H](Cc1c[nH]c2ccccc12)NC(=O)CN)C(=O)NCC(=O)N[C@@H](CCCCN)C(=O)N[C@@H](CCCCN)C(=O)N[C@H](C(=O)N[C@@H](CCC(=O)O)C(=O)N[C@@H](CCCNC(=N)N)C(=O)N[C@H](C(=O)NCC(=O)N[C@@H](CCC(N)=O)C(=O)N[C@@H](Cc1c[nH]cn1)C(=O)N[C@H](C(=O)N[C@@H](CCCNC(=N)N)C(=O)N[C@@H](CC(=O)O)C(=O)N[C@@H](C)C(=O)N[C@H](C(=O)N[C@H](C(=O)N[C@@H](CCC(N)=O)C(=O)N[C@H](C(=O)N[C@H](C(=O)NCC(=O)N[C@H](C(=O)N[C@@H](C)C(=O)N[C@@H](CCC(N)=O)C(=O)N[C@@H](CCC(N)=O)C(=O)N[C@@H](C)C(=O)N[C@@H](C)C(=O)N[C@@H](CC(N)=O)C(=O)N[C@H](C(=O)N[C@@H](C)C(=O)N[C@@H](C)C(=O)N[C@H](C(=O)N[C@@H](CC(C)C)C(=O)N[C@@H](CCCCN)C(N)=O)[C@@H](C)O)C(C)C)C(C)C)[C@@H](C)CC)[C@@H](C)O)[C@@H](C)CC)[C@@H](C)O)[C@@H](C)O)C(C)C)[C@@H](C)CC` the MIC was 16 mg/L (≈ 3.81 µM) (Klebsiella pneumoniae; isolate RKI 19/16, CAMHB).
With `CCCCCCCCCCCCCCCCCC(=O)N[C@@H](CCC(=O)NCCCC[C@H](NC(=O)[C@H](CCC(N)=O)NC(=O)[C@H](CCCCN)NC(=O)[C@H](CO)NC(=O)[C@H](CC(C)C)NC(=O)[C@H](CC(=O)O)NC(=O)[C@H](CO)NC(=O)[C@@H](NC(=O)[C@H](Cc1ccccc1)NC(=O)[C@@H](NC(=O)CNC(=O)[C@H](CCC(N)=O)NC(=O)[C@@H](CO)NC(=O)[C@@H](N)Cc1c[nH]cn1)[C@@H](C)O)[C@@H](C)O)C(=O)N[C@@H](CC(=O)O)C(=O)N[C@@H](CCC(=O)O)C(=O)N[C@@H](CCC(N)=O)C(=O)N[C@@H](CC(C)C)C(=O)N[C@@H](C)C(=O)N[C@@H](CCCCN)C(=O)N[C@@H](CC(=O)O)C(=O)N[C@@H](Cc1ccccc1)C(=O)N[C@H](C(=O)N[C@@H](CCC(=O)O)C(=O)N[C@@H](Cc1c[nH]c2ccccc12)C(=O)N[C@@H](CC(C)C)C(=O)N[C@@H](CCCCN)C(=O)N[C@@H](C)C(=O)NCC(=O)NCC(=O)N1CCC[C@H]1C(=O)N[C@@H](CO)C(=O)N[C@@H](CO)C(=O)NCC(=O)N[C@@H](C)C(=O)N1CCC[C@H]1C(=O)N1CCC[C@H]1C(=O)N1CCC[C@H]1C(=O)N[C@@H](CO)C(N)=O)[C@@H](C)CC)C(=O)O` the blood glucose was about 120 mg/dL (cynomolgus monkey, obese diabetic; dose not given, level returned to on chronic treatment).
For `CCCCCCCCCCCCCCCC(=O)N[C@@H](CCC(=O)NCCOCCOCCC(=O)NCCOCCOCCC(=O)NCCCC[C@H](NC(=O)[C@H](CC(=O)O)NC(=O)[C@H](CC(C)C)NC(=O)[C@H](Cc1ccc(O)cc1)NC(=O)[C@H](CCCCN)NC(=O)[C@H](CO)NC(=O)[C@H](Cc1ccc(O)cc1)NC(=O)[C@H](CC(=O)O)NC(=O)[C@H](CO)NC(=O)[C@@H](NC(=O)[C@H](Cc1ccccc1)NC(=O)[C@@H](NC(=O)CNC(=O)[C@H](CCC(N)=O)NC(=O)[C@@H](CO)NC(=O)[C@@H](N)Cc1c[nH]cn1)[C@@H](C)O)[C@@H](C)O)C(=O)N[C@@H](CCCNC(=N)N)C(=O)N[C@@H](CCCNC(=N)N)C(=O)N[C@@H](C)C(=O)N[C@@H](CCC(N)=O)C(=O)N[C@@H](CC(=O)O)C(=O)N[C@@H](Cc1ccccc1)C(=O)N[C@H](C(=O)N[C@@H](CCC(N)=O)C(=O)N[C@@H](Cc1c[nH]c2ccccc12)C(=O)N[C@@H](CC(C)C)C(=O)N[C@@H](CC(C)C)C(=O)N[C@@H](CC(N)=O)C(=O)N[C@H](C(=O)NCC(=O)NCC(=O)N1CCC[C@H]1C(=O)N[C@@H](CO)C(=O)N[C@@H](CO)C(=O)NCC(=O)N[C@@H](C)C(=O)N1CCC[C@H]1C(=O)N1CCC[C@H]1C(=O)N1CCC[C@H]1C(=O)N[C@@H](CO)C(N)=O)[C@@H](C)O)C(C)C)C(=O)O`, “serum ALT and AST” read “decreased” (Sprague-Dawley rat CCl4 model; dose not given).
For `Cc1cc(/C=C/C#N)cc(C)c1-n1cnc2cnc(Nc3ccc(C#N)cc3)nc21`, the EC50 was 24.5 ± 4 nM (HIV-1; viral replication, single-round infection; RT mutant Y188L).
Under “low membrane potential mitochondria”, `CC[C@H](C)[C@H](NC(=O)CNC(=O)[C@@H](NC(=O)[C@H](CCCNC(=N)N)NC(=O)[C@H](CO)NC(=O)[C@H](Cc1c[nH]cn1)NC(=O)[C@H](CCCNC(=N)N)NC(=O)[C@H](CS)NC(=O)CNC(=O)[C@@H](NC(=O)[C@H](CCCNC(=N)N)NC(=O)[C@H](Cc1ccccc1)NC(=O)[C@H](Cc1c[nH]cn1)NC(=O)[C@@H](NC(=O)[C@H](Cc1ccccc1)NC(=O)[C@H](CC(C)C)NC(=O)[C@H](CC(C)C)NC(=O)[C@H](CCC(N)=O)NC(=O)[C@H](CCC(N)=O)NC(=O)[C@H](CC(C)C)NC(=O)[C@@H](NC(=O)[C@H](CCCNC(=N)N)NC(=O)[C@@H](NC(=O)[C@H](CC(C)C)NC(=O)[C@H](C)NC(=O)[C@H](CCC(=O)O)NC(=O)[C@@H](NC(=O)CNC(=O)[C@@H](NC(=O)[C@H](Cc1c[nH]c2ccccc12)NC(=O)[C@@H](NC(=O)[C@@H](N)CC(=O)O)[C@@H](C)O)[C@@H](C)O)C(C)C)[C@@H](C)CC)[C@@H](C)CC)[C@@H](C)CC)[C@@H](C)CC)[C@@H](C)CC)C(=O)N[C@H](C(=O)N[C@@H](CCC(N)=O)C(=O)N[C@@H](CCC(N)=O)C(=O)N[C@@H](CCCNC(=N)N)C(=O)N[C@@H](CCCNC(=N)N)C(=O)N[C@H](C(=O)N[C@@H](CCCNC(=N)N)C(=O)N[C@@H](CC(N)=O)C(=O)NCC(=O)N[C@@H](C)C(=O)N[C@@H](CO)C(=O)N[C@@H](CCCCN)C(=O)N[C@@H](CO)C(=O)O)[C@@H](C)O)[C@@H](C)CC` is recorded as 73% (JC-1 flow cytometry; purified mouse mitochondria; 1 µM, 15 min).
`O=C(NCc1ccc(F)cc1F)c1cn2ccn(CCCCCCO)c(=O)c2c(O)c1=O` has an EC50 of 19.7 ± 1.7 nM (human immunodeficiency virus 1; single-round vector infection; integrase N155H).

Excerpt of the above:
With `Cc1ccc2c(n1)c(-c1cccc(S(C)(=O)=O)c1)c(C)n2C/C(F)=C/CN` the inhibition was -5% (strychnine-sensitive glycine receptor (rat); radioligand binding; 10 µM, rat).
